Assay results pooled from the literature.
Each line is one published result; not all experiments were run side by side.

SMILES	assay	test system	setting	quantity	result
CC(C)C[C@H](NC(=O)[C@H](Cc1ccccc1)NC(=O)CNC(=O)CNC(=O)[C@@H](N)Cc1ccc(O)cc1)C(=O)N[C@@H](CSCB(O)O)C(N)=O	–	PBS	24 h, pH 7.4, together with: H2O2 100 µM	degradation	32%
CC(C)C12OC1C1OC13C1(C)CCC4=C(COC4=O)C1CC1OC13C2OC(=O)CCC(=O)OC1OC(CO)C(O)C(O)C1O (stereo not drawn)	item: triptolide succinate	10% human serum in DMEM	10 µM, room temperature	degradation time	≤ 4 h
CC[C@H](C)[C@@H]1NC(=O)[C@H](CCCNC(=N)N)NC(=O)[C@H](CC(=O)O)NC(=O)[C@H](CC(C)C)NC(=O)[C@H](CCCCN)NC(=O)[C@H](CC(C)C)NC(=O)CNC(=O)[C@H](Cc2ccccc2)NC(=O)[C@@H](NC(=O)CNC(=O)[C@H](CCCCN)NC(=O)[C@H](CO)NC(=O)[C@H](CC(C)C)NC(=O)CNC(=O)[C@H](CCCCN)NC(=O)[C@H](CCCCN)NC(=O)[C@H](CCC(N)=O)NC(=O)[C@H](C)NC(=O)CNC(=O)[C@H](CCCCN)NC(=O)[C@H](Cc2ccc(O)cc2)NC(=O)[C@H](CCCCN)NC(=O)[C@H](CCCNC(=N)N)NC(=O)[C@H](C)NC(=O)[C@H](CCC(N)=O)NC(=O)[C@@H]2CCCN2C(=O)[C@H](Cc2c[nH]cn2)NC(=O)[C@H](CCC(=O)O)NC(=O)[C@H](CCC(N)=O)NC(=O)[C@@H](N)CC(C)C)CSSC[C@@H](C(=O)O)NC(=O)CNC(=O)[C@H](CC(C)C)NC(=O)CNC(=O)[C@H](CO)NC(=O)[C@H](CCSC)NC(=O)[C@H](CO)NC(=O)CNC1=O	–	–	pH 7.4, 37 °C	degradation half-life	~5 months
Cc1cc2c(C(=O)Cc3ccccc3)c(O)c(O)cc2c(O)c1-c1c(C)cc2c(C(=O)Cc3ccccc3)c(O)c(O)cc2c1O	–	rat plasma	1 h	degradation	15%
COC(=O)CCC(C)C1CCC2C3C(O)CC4CC(OC(=O)CCC(=O)OC5OC6OC7(C)CCC8C(C)CCC(C5C)C68OO7)CCC4(C)C3CCC12C (stereo not drawn)	HPLC-MS	cell culture medium	24 h, 37 °C	degradation	≤ 80%
N=C(N)NCCC[C@H](NC(=O)CNC(=O)[C@@H](N)Cc1c[nH]c2ccccc12)C(=O)N1CCC[C@H]1C(=O)O	HPLC	solution	1 mg/mL, 60 days, 25 °C	degradation	2.33%
CSCC[C@H](NC(=O)[C@H](CC(C)C)NC(=O)CNC(=O)[C@H](Cc1ccccc1)NC(=O)[C@H](Cc1ccccc1)NC(=O)[C@H](CCC(N)=O)NC(=O)[C@H](CCC(N)=O)NC(=O)[C@@H]1CCCN1C(=O)[C@H](CCCCN)NC(=O)[C@@H]1CCCN1C(=O)[C@@H](N)CCCN=C(N)N)C(N)=O	HPLC	rat mast cell suspension	–	degradation time	≤ 0.5 h
CSCC[C@H](NC(=O)CNC(=O)[C@H](CC(=O)O)NC(=O)[C@@H](NC(=O)[C@@H](NC(=O)[C@@H](NC(=O)CNC(=O)[C@H](CCC(=O)O)NC(=O)[C@H](CCSC)NC(=O)[C@H](CC(=O)O)NC(=O)[C@H](C)NC(=O)[C@H](C)NC(=O)[C@@H](NC(=O)[C@H](CO)NC(=O)[C@@H](N)CC(C)C)[C@@H](C)O)C(C)C)C(C)C)[C@@H](C)O)C(=O)N[C@@H](C)C(=O)N[C@@H](CO)C(=O)NCC(=O)N[C@@H](CC(C)C)C(=O)N[C@@H](CC(=O)O)C(=O)N[C@@H](CCCCN)C(=O)N[C@@H](CC(=O)O)C(=O)N[C@@H](Cc1ccc(O)cc1)C(=O)N[C@@H](CC(C)C)C(=O)N[C@@H](CCCCN)C(=O)N1CCC[C@H]1C(=O)N[C@@H](CC(=O)O)C(=O)N[C@@H](CC(=O)O)C(=O)O	–	mouse serum	10 µg/mL, 24 h, 37 °C	degradation	32 to 34%
CC[C@H](C)[C@@H]1NC(=O)[C@H](CC(N)=O)NC(=O)[C@@H]2CCCN2C(=O)[C@@H](NC(=O)[C@H](CC(N)=O)NC(=O)[C@@H](N)CCC(N)=O)COC(=O)[C@H](CCSC)NC(=O)[C@H](Cc2c[nH]c3ccccc23)NC(=O)[C@H](CCC(N)=O)NC(=O)CNC(=O)[C@H](Cc2ccccc2)NC1=O	–	PBS	24 h, pH 7.2, 25 °C	degradation	~6%

Excerpt of the above:
SMILES	assay	test system	setting	quantity	result
CC[C@H](C)[C@@H]1NC(=O)[C@H](CCCNC(=N)N)NC(=O)[C@H](CC(=O)O)NC(=O)[C@H](CC(C)C)NC(=O)[C@H](CCCCN)NC(=O)[C@H](CC(C)C)NC(=O)CNC(=O)[C@H](Cc2ccccc2)NC(=O)[C@@H](NC(=O)CNC(=O)[C@H](CCCCN)NC(=O)[C@H](CO)NC(=O)[C@H](CC(C)C)NC(=O)CNC(=O)[C@H](CCCCN)NC(=O)[C@H](CCCCN)NC(=O)[C@H](CCC(N)=O)NC(=O)[C@H](C)NC(=O)CNC(=O)[C@H](CCCCN)NC(=O)[C@H](Cc2ccc(O)cc2)NC(=O)[C@H](CCCCN)NC(=O)[C@H](CCCNC(=N)N)NC(=O)[C@H](C)NC(=O)[C@H](CCC(N)=O)NC(=O)[C@@H]2CCCN2C(=O)[C@H](Cc2c[nH]cn2)NC(=O)[C@H](CCC(=O)O)NC(=O)[C@H](CCC(N)=O)NC(=O)[C@@H](N)CC(C)C)CSSC[C@@H](C(=O)O)NC(=O)CNC(=O)[C@H](CC(C)C)NC(=O)CNC(=O)[C@H](CO)NC(=O)[C@H](CCSC)NC(=O)[C@H](CO)NC(=O)CNC1=O	–	–	pH 7.4, 37 °C	degradation half-life	~5 months
